# Experimental data gathered from unrelated publications.
# Protocols differ between the studies behind these lines.
# FLT3: Receptor-type tyrosine-protein kinase FLT3 (FLT3, Homo sapiens, UniProt P36888)
# FLT3 D835Y: Receptor-type tyrosine-protein kinase FLT3 (FLT3, Homo sapiens, UniProt P36888, D835Y)
# FLT3 N841I: Receptor-type tyrosine-protein kinase FLT3 (FLT3, Homo sapiens, UniProt P36888, N841I)
SMILES,target,test,conditions,scale,remaining binding
CN1CCN(Cc2ccc(NC(=O)c3cccc(C#Cc4cnc(N)c5ncccc45)c3)cc2C(F)(F)F)CC1,FLT3,"cell-free assay, competition with immobilised ligand",0.5 µM,,0.2%
C=CC(=O)N1CCCC(n2c(=O)c3ncccc3n(Cc3ccc(Oc4ccccc4)cc3)c2=O)C1 (stereo not shown),FLT3,"cell-free assay, competition with immobilised ligand",1 µM,,91%
CC(C)=CC1OC(C)(C)C2C=C3C(=O)C(Cl)=CC(O)C3C3C(O)C4OC4C(=O)C132 (stereo not shown),"Receptor-type tyrosine-protein kinase FLT3 (FLT3, Homo sapiens, UniProt P36888, ITD)","cell-free assay, competition with immobilised ligand",10 µM,,83%
C=CC(=O)N1CCc2ccc(-n3c(=O)ccc4cnc5ccc(-c6cnn(C)c6)cc5c43)cc21,FLT3 D835Y,KINOMEscan,1 µM,relative to: DMSO control,100%
Cc1ccc(-c2c(/C=C(\C#N)C(=O)NC(C)C)n(CCCO)c3ncnc(N)c23)cc1,"Receptor-type tyrosine-protein kinase FLT3 (FLT3, Homo sapiens, UniProt P36888, D835H)","cell-free assay, competition with immobilised ligand",1 µM,,100%
CNC(=O)C1CCN(c2cc(C)c(F)cc2NC(=O)c2ccc(-c3cc(O)ccc3C)c(C)c2)CC1,"Receptor-type tyrosine-protein kinase FLT3 (FLT3, Homo sapiens, UniProt P36888, K663Q)","binding, competition with immobilised ligand",1 µM,,100%
Cc1cnc2nc1Nc1cccc(c1)COC/C=C/COCc1cc(ccc1OCCN1CCOCC1)N2,FLT3 N841I,binding,0.1 µM,,1.3%
C[C@]1(O)CCCN(c2nc(Nc3ccc(S(=O)(=O)N[C@H]4CC[C@H](CN5CCN(c6ccc(C7CCC(=O)NC7=O)cc6F)CC5)CC4)cc3)ncc2C(F)(F)F)C1 (stereo partly shown),FLT3 N841I,"binding, competition with immobilised ligand",1 µM,,8.4%
Nc1ncc2c(n1)-c1c([nH]c3ccc(C4=CCOCC4)cc13)CCC2,FLT3 N841I,"binding, competition with immobilised ligand",1 µM,,94%
CNC1C[S+]2CC[S+]3CC[S+](C1)[Ru-4]321([N]=C=S)[n]2c3ccc(OC)cc3c3c4c(c5cc(F)c[n+]1c5c32)C(=O)NC4=O (stereo not shown),FLT3 D835Y,KinomeScan,0.1 µM,relative to: untreated,12%
CCN1CCN(Cc2ccc(C(=O)Nc3ccc(C)c(NCc4cnc5[nH]ccc5c4OC)c3)cc2C(F)(F)F)CC1,FLT3,"binding, competition with immobilised ligand",1 µM,,0.2%
COc1c(Cl)cccc1Nc1c(-c2ccncc2C#C[C@@]2(C)CCCN2C(=O)/C=C/CN(C)C)[nH]c2c1C(=O)NCC2,"Receptor-type tyrosine-protein kinase FLT3 (FLT3, Homo sapiens, UniProt P36888, R834Q)","binding, competition with immobilised ligand",3 µM,,86%
CCN1CCN(Cc2ccc(NC(=O)c3ccc(C)c(NC(=O)c4cncc(-c5cccs5)c4)c3)cc2C(F)(F)F)CC1,FLT3 N841I,"binding, competition with immobilised ligand",1 µM,,0%
